Experimental data of several laboratories.
Protocols differ between the studies behind these lines. ± marks the error that the study gave.

Compound | method | medium | time | pH | temperature | setting | solubility
CC(C)(C)C(=O)NNCc1ccccc1 | – | PBS | – | pH 7.4 | 25 °C | 2% DMSO | 452 µM
COC1=CC(c2ccc[nH]2)=N/C1=C\c1cc(-c2ccc(OC(F)(F)F)cc2)c(C)[nH]1.Cl | – | potassium phosphate buffer | 1.5 h | pH 7.4 | room temperature | 100 mM buffer | < 3.13 µM
CC(C)(N)CNC(=O)C[C@@H]1CCC[C@]2(C1)OOC1(O2)C2CC3CC(C2)CC1C3 (stereo partly drawn) | – | – | – | pH 7.4 | – | – | 429 µM
CC[C@H](C)[C@H](NC(=O)[C@H](CC(=O)O)NC(=O)[C@H](CCCCN)NC(=O)[C@H](CC(C)C)NC(=O)[C@H](CC(N)=O)NC(=O)[C@@H](NC(=O)[C@H](Cc1ccc(O)cc1)NC(=O)[C@H](CO)NC(=O)[C@H](CCC(N)=O)NC(=O)[C@H](CCC(=O)O)NC(=O)[C@H](CC(C)C)NC(=O)[C@H](CCCCN)NC(=O)[C@H](CCCCN)NC(=O)[C@@H](NC(=O)[C@H](C)NC(=O)[C@H](CCC(=O)O)NC(=O)[C@H](CCC(=O)O)NC(=O)[C@H](CC(C)C)NC(=O)[C@H](CCCCN)NC(=O)[C@H](CCCCN)NC(=O)[C@H](CCSC)NC(=O)[C@H](CCC(=O)O)NC(=O)[C@H](CC(=O)O)NC(=O)[C@H](CCC(N)=O)NC(=O)[C@H](CC(C)C)NC(=O)[C@H](CC(=O)O)NC(=O)[C@H](CC(C)C)NC(=O)[C@H](Cc1ccccc1)NC(=O)[C@@H](NC(=O)[C@@H](NC(=O)[C@H](CC(N)=O)NC(=O)[C@@H](NC(=O)[C@H](Cc1ccc(O)cc1)NC(=O)[C@H](CC(=O)O)NC(=O)[C@H](CC(C)C)NC(=O)[C@@H](N)CO)[C@@H](C)CC)C(C)C)[C@@H](C)O)[C@@H](C)CC)[C@@H](C)CC)C(=O)O | – | water | – | – | – | – | 9510 ± 272 µM
COC1=CC(c2ccc[nH]2)=N/C1=C\c1cc(-c2ccc(OC)cc2)c(C)[nH]1.Cl | – | potassium phosphate buffer | 1.5 h | pH 7.4 | room temperature | 100 mM buffer | 25.1 µM
C#Cc1ccc2c(c1)C(c1ccccn1)=NCc1c(-c3cnco3)ncn1-2 | thermodynamic equilibrium, UV | isopropanol | 24 h | – | 25 °C | – | 3260 µg/mL
CS(=O)(=O)NCC1CCOC2(CCN(C(=O)C3(c4cccc(Cl)c4)CCCC3)CC2)C1 (stereo not drawn) | – | – | – | pH 7.4 | – | – | > 220 µM
COC1=CC(c2ccc[nH]2)=N/C1=C\c1[nH]c(-c2ccc(Cl)cc2)cc1-c1ccc(Cl)cc1 | – | potassium phosphate buffer | 1.5 h | pH 7.4 | room temperature | 100 mM buffer | 52.8 µM
Cc1ccc(S(=O)(=O)Nc2c(N[C@H]3CC[C@H](NC(=O)Nc4ccc(F)c(Cl)c4)CC3)c(=O)c2=O)cc1 | – | – | – | pH 7.4 | – | – | 473 µg/mL
CC[C@@H]1NC(=O)[C@H](CC(C)C)NC(=O)CNC(=O)CNC(=O)[C@@H](CC(C)C)NC(=O)[C@@H](Cc2ccc(O)cc2)NC(=O)CSC[C@@H](C(=O)O)NC(=O)[C@H](C(C)C)NC(=O)[C@H](CC(C)C)NC(=O)[C@H](C)NC(=O)[C@H]([C@@H](C)CC)NC1=O | – | HBSS | – | pH 7.4 | – | – | 3.98 µM
CC[C@H](C)[C@H](NC(=O)[C@H](CCC(=O)O)NC(=O)[C@H](CCCCN)NC(=O)[C@H](CC(C)C)NC(=O)[C@H](CC(N)=O)NC(=O)[C@@H](NC(=O)[C@H](Cc1ccc(O)cc1)NC(=O)[C@H](CO)NC(=O)[C@H](CCC(=O)O)NC(=O)[C@H](CCC(=O)O)NC(=O)[C@H](CC(C)C)NC(=O)[C@H](CCCCN)NC(=O)[C@H](CCCCN)NC(=O)[C@@H](NC(=O)[C@H](C)NC(=O)[C@H](CCC(=O)O)NC(=O)[C@H](CCC(=O)O)NC(=O)[C@H](CC(C)C)NC(=O)[C@H](CCCCN)NC(=O)[C@H](CCCCN)NC(=O)[C@H](CCSC)NC(=O)[C@H](CCC(=O)O)NC(=O)[C@H](CC(=O)O)NC(=O)[C@H](CCC(=O)O)NC(=O)[C@H](CC(C)C)NC(=O)[C@H](CC(=O)O)NC(=O)[C@H](CC(C)C)NC(=O)[C@H](Cc1ccccc1)NC(=O)[C@@H](NC(=O)[C@@H](NC(=O)[C@H](CC(N)=O)NC(=O)[C@@H](NC(=O)[C@H](Cc1ccc(O)cc1)NC(=O)[C@H](CC(=O)O)NC(=O)[C@H](CC(C)C)NC(=O)[C@@H](N)CO)[C@@H](C)CC)C(C)C)[C@@H](C)O)[C@@H](C)CC)[C@@H](C)CC)C(=O)O | – | PBS | – | pH 7.2 | – | – | 528 ± 19 µM
COc1cc(Nc2ncc(F)c(Nc3ccc4c(n3)NC(=O)C(C)(C)O4)n2)cc(OC)c1OC | – | kinase assay buffer | 3 h | – | – | 1% DMSO | 170 µM
CSCC[C@H](NC(=O)[C@H](CCC(=O)O)NC(=O)[C@@H]1CCCN1C(=O)[C@@H](NC(=O)[C@@H]1CCCN1)[C@@H](C)O)C(=O)N[C@@H](CCCNC(=N)N)C(=O)N[C@@H](CCC(=O)O)C(=O)N[C@@H](CCCCN)C(=O)N[C@@H](CC(C)C)C(=O)N[C@H]1CSSC[C@@H]2NC(=O)[C@@H](NC(=O)[C@H](Cc3ccc(O)cc3)NC(=O)[C@H](CCCNC(=N)N)NC(=O)[C@H](C)NC(=O)[C@@H]3CCCN3C(=O)[C@H](CC(N)=O)NC(=O)[C@@H](NC(=O)[C@H](C)NC(=O)[C@H](C)NC(=O)[C@H](C)N)[C@@H](C)O)CSSC[C@H](NC(=O)CNC(=O)[C@H](CO)NC(=O)[C@H](CC(C)C)NC2=O)C(=O)N[C@@H]([C@@H](C)O)C(=O)N[C@@H](CCC(N)=O)C(=O)N[C@@H](CCC(N)=O)C(=O)N[C@@H](CC(=O)O)C(=O)N[C@@H](CC(C)C)C(=O)N[C@@H](CC(C)C)C(=O)N[C@@H]([C@@H](C)O)C(=O)N[C@@H](CC(C)C)C(=O)N[C@H](C(=O)N2CCC[C@H]2C(=O)N[C@@H](Cc2ccc(O)cc2)C(=O)O)CSSC[C@@H](C(=O)NCC(=O)NCC(=O)N2CCC[C@H]2C(=O)N[C@@H](CCCNC(=N)N)C(=O)N[C@@H](Cc2c[nH]c3ccccc23)C(=O)N[C@@H](CO)C(=O)N[C@H](C(=O)N[C@@H](CCC(=O)O)C(=O)N[C@@H](C)C(=O)O)[C@@H](C)O)NC(=O)[C@H](C(C)C)NC(=O)[C@H](CCCNC(=N)N)NC(=O)[C@H](C(C)C)NC(=O)[C@H](CC(C)C)NC(=O)[C@H](C)NC(=O)[C@H](CCCNC(=N)N)NC(=O)[C@H](C(C)C)NC(=O)[C@H](Cc2ccccc2)NC(=O)[C@H](Cc2c[nH]cn2)NC(=O)[C@H](Cc2c[nH]cn2)NC(=O)CNC1=O | – | water | – | – | – | – | ~100 µM
O=c1ccn([C@@H]2O[C@H](CO)[C@@H](O)[C@H]2O)c(=S)[nH]1 | – | simulated gastric fluid | 4 (unit not given) | pH 1.2 | 37 °C | – | 78 µM
Cn1c(=O)ccc2ccc(F)c(CCNC[C@H]3CN(c4ncc5c(n4)NC(=O)CO5)C(=O)O3)c21 | – | aqueous buffer | – | – | – | – | 250 µM
Cc1ccc([C@@H]2COC[C@H](c3ccc(C#N)cc3)N2)cn1 | shake-flask, LC-HRMS | aqueous buffer | 16 h | pH 6.8 | – | – | > 750 µM
CN(C)S(=O)(=O)NCC1CCOC2(CCN(C(=O)C3(c4cccnc4)CCCC3)CC2)C1 (stereo not drawn) | – | – | – | pH 7.4 | – | – | 160 µM
CCNC(=O)c1cc(C)ccc1OCCc1cc(F)cc(F)c1 | – | PBS | 30 (unit not given) | pH 7.4 | – | – | 50 µM
NC(=O)c1cccc2c1O/C(=C\c1ccc(C(=O)N[C@H]3CN4CCC3CC4)s1)C2=O | saturation solubility | aqueous buffer | 24 h | – | 25 °C | – | > 1000 µg/mL
COc1ccc(-c2oc3cc(OC)cc(OC)c3c(=O)c2OC)cc1 | HPLC | ethanol:butylene glycol 0:100 | – | – | – | – | 5674 ± 41 ppm
CN(C)S(=O)(=O)NCC1CCOC2(CCN(C(=O)C3(c4ccccc4F)CCCC3)CC2)C1 (stereo not drawn) | – | – | – | pH 7.4 | – | – | 230 µM
CCOC(=O)N1C[C@@H](c2ccc(C)nc2)N[C@@H](C2CCC2)C1 | shake-flask, LC-HRMS | aqueous buffer | 16 h | pH 6.8 | – | – | > 750 µM
O=C(NCCCNc1nc(Nc2cccc(NC(=O)N3CCCC3)c2)ncc1I)c1cccs1 | – | Capmul MCM C8 | 24 h | – | 37 °C | – | 570 ± 280 µg/mL
CC=CCC(C)C1OC(=O)C(C(C)C)N(C)C(=O)C(CC(C)C)N(C)C(=O)C(CC(C)C)N(C)C(=O)C(C)NC(=O)C(C)NC(=O)C(CC(C)C)N(C)C(=O)C(C(C)C)NC(=O)C(CC(C)C)N(C)C(=O)CN(C)C(=O)C(CC)NC(=O)C1NC (stereo not drawn) | – | HBSS | 18 h | pH 7.4 | – | – | 91.2 µM

Some of these lines once more:
Compound | method | medium | time | pH | temperature | setting | solubility
NC(=O)c1cccc2c1O/C(=C\c1ccc(C(=O)N[C@H]3CN4CCC3CC4)s1)C2=O | saturation solubility | aqueous buffer | 24 h | – | 25 °C | – | > 1000 µg/mL
COc1cc(Nc2ncc(F)c(Nc3ccc4c(n3)NC(=O)C(C)(C)O4)n2)cc(OC)c1OC | – | kinase assay buffer | 3 h | – | – | 1% DMSO | 170 µM
COc1ccc(-c2oc3cc(OC)cc(OC)c3c(=O)c2OC)cc1 | HPLC | ethanol:butylene glycol 0:100 | – | – | – | – | 5674 ± 41 ppm
CN(C)S(=O)(=O)NCC1CCOC2(CCN(C(=O)C3(c4ccccc4F)CCCC3)CC2)C1 (stereo not drawn) | – | – | – | pH 7.4 | – | – | 230 µM
